Experimental data of several laboratories.
Each numbered part is a random draw from the data of one study; scales do not carry over between parts.

Study 1 — technique: RNA Bind-n-Seq; molecule type: RNA; matrix: in vitro; tested at: 365 nM; relative to: no-protein control; reading: higher = stronger binding; quantity: RBNS enrichment (R)
Target: RNA binding protein fox-1 homolog 2, RRM domain, GST-SBP tag (RBFOX2, Homo sapiens, UniProt O43251-10, residues 100-194)
Setting: natural RNA segment, single round, ends assumed
Shared flanks, not repeated: GGGAGUUCUACAGUCCGACGAUC … UGGAAUUCUCGGGUGCCAA
Target sequence (chain): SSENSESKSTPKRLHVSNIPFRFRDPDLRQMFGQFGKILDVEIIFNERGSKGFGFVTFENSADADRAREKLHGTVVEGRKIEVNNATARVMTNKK
CAACUCAGAUCAAAAAUGGGCAGCCAAGUCUUCGGUAGGAAUUGGAGCCGGUGUAAUUCCUCCCUAAGAGGCAACCUGUUGAAUUUACUCUCUCAGAGUAAAUGGUGGGA: 0.333
AGAGCUCCACAAUCAAGAUGGCAAAUGGAAACGUAAUCUGACUUCCUGGUGAAAAAUAAAAACCGGAGAAGUCAUUUGGAGGGCCAUCCUAAAGCUCUACUGUAUAAUGA: 0.474
UGAGAAUGGAGAGCCCGAGAAGUGAAUCUUCCUUGUCCUGUAUAAUAAAUUAUUAAGUUGUGUUGGUCCGGGCUUCGAAUGGCCUCUUUUUCCUAGUGUAAUUCUGUGUG: 0.641
AAAAACAUAUAUUUUGCAGAGCUCCACAUACAGAAACACAUUAUUUUGCAGAAAUAAGUGUUUGUAAGAAGUUUUACUAUAGGAAAGUCUACUUUUUUAAGCAGCAAAGU: 0.815
AGGGAAAACACUUGGACUCUUCUUGCAGCACUAAAACUAACCUGGAAUCGCAUGUAGUAGAGCUGAAAGAAUUAAAGACCCGGCUUACAGCUUCAGAUGAAGCUUUAAGC: 5.92
GGGGCUAGUAGCUGACCUGCUGCCUCCUGCCCUACUUGUGUGGACAGGAGGCCCACGGGCACUGGGGAAGCUGAGUUCUACAAUCCCGCUGGGGCGCAUGGGCAGGAGAG: 4.81

Study 2 — technique: protein-binding microarray; molecule type: double-stranded DNA, one strand shown; matrix: in vitro; tested at: 2540 nM top; setting: 60-bp whole probe; together with: salmon DNA 0.4 mg/ml; relative to: random background probes; reading: higher = stronger binding; quantity: fitted relative affinity; shared flanks, not repeated: GCCTAGCAC … GTCTTGATTCGCTTGACGCTGCTG
Target: Interferon regulatory factor 3, full length, phosphomimetic (IRF3, Homo sapiens, UniProt Q14653, residues 1-427, S386D/S396D/S398D/S402D/T404D/S405D)
Construct (chain): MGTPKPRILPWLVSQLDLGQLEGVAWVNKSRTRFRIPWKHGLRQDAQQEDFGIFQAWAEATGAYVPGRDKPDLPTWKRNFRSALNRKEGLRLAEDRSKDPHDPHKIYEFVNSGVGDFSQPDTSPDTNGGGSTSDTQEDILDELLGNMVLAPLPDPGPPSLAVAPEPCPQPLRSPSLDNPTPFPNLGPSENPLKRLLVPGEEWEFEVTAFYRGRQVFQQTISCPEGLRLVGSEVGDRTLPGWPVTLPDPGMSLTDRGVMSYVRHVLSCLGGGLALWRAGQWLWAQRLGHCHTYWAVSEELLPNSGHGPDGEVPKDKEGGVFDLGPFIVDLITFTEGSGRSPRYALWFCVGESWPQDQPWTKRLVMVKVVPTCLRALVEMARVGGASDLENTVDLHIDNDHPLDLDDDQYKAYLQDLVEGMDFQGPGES
TTAGAAATGGGGTTTCGATTAGTGCTA: 1.57 z-score
GACGGTTTCGGCTTCGGGACGTGCTAG: 3.86 z-score
ATAGGTTTCCTTTCCCTTTAGTGCTAG: 10.7 z-score
GACGATTTCAGTTTCTAGACGTGCTAG: 3.87 z-score
TAAGAAAAGCCACCAGGACCGTGCTAG: -0.638 z-score

Study 3 — technique: aptamer microarray, sandwich; molecule type: DNA with 2'F-ANA; matrix: in vitro; tested at: 200 nM; together with: Cy3 exosite-II aptamer, 400 nM; reading: higher = stronger binding; quantity: mean fluorescence intensity; sequence: GGTTGGTGTGGTTGG
Target: Prothrombin, mature alpha-thrombin (F2, Homo sapiens, UniProt P00734)
Setting: whole 15-mer aptamer, many near background
2'F-ANA at 1 2 9 10 13: 51.1 a.u.
2'F-ANA at 2 3 6 7 9 11 12: 759 a.u.
2'F-ANA at 1 4 5 6 9 15: 56.2 a.u.
2'F-ANA at 4 6 7 11 12: 383 a.u.
2'F-ANA at 3 7 10 12 13: 973 a.u.
2'F-ANA at 1 4 5 6 10 11 13 14 15: 47.4 a.u.

Single results of other studies
PhoQ, residues 284 288 289 292 302 303 NLMGRA — fold induction (PhoP, residues 12 14 15 18 19 AYFRS (Escherichia coli, UniProt P23836); Sort-seq, item: YFP reporter; E. coli; PhoQ-PhoP variant library, together with: 10 µM Mg2+; relative to: high Mg2+ state, higher = stronger signaling): 8.92

Excerpt of the above (study 1):
AGAGCUCCACAAUCAAGAUGGCAAAUGGAAACGUAAUCUGACUUCCUGGUGAAAAAUAAAAACCGGAGAAGUCAUUUGGAGGGCCAUCCUAAAGCUCUACUGUAUAAUGA: 0.474
UGAGAAUGGAGAGCCCGAGAAGUGAAUCUUCCUUGUCCUGUAUAAUAAAUUAUUAAGUUGUGUUGGUCCGGGCUUCGAAUGGCCUCUUUUUCCUAGUGUAAUUCUGUGUG: 0.641
